Experimental data from different studies.
Each numbered part is a random draw from the data of one study; scales do not carry over between parts.

Study 1 — method: protein-binding microarray; molecule type: double-stranded DNA, one strand shown; matrix: in vitro; tested at: not given; direction: higher = stronger binding
Target: TATA-box-binding protein 1 (TBP1, Arabidopsis thaliana, UniProt P28147, residues 1-200, full length assumed)
Notes: k-mer, scored over probes, only values ≥0.25
Residues (chain): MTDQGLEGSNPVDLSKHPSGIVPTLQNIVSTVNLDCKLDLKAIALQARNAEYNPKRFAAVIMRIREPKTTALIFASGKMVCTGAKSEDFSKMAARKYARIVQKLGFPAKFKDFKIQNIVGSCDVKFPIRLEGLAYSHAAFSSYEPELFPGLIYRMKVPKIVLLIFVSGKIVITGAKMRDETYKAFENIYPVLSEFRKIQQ
Strand	E-score
ATACACA	0.263
GTGATAA	0.254
AAAGTAT	0.298
AATAGCT	0.26

Study 2 — method: protein binding microarray; molecule type: double-stranded DNA, one strand shown; matrix: in vitro; tested at: not given; relative to: not given; direction: higher = stronger binding
Target: Histone acetyltransferase KAT6A, both winged helices, GST fusion (KAT6A, Homo sapiens, UniProt Q92794, residues 1-181)
Notes: 8-mer, flanks averaged, mean of 2 arrays, mostly near background
Target sequence (chain): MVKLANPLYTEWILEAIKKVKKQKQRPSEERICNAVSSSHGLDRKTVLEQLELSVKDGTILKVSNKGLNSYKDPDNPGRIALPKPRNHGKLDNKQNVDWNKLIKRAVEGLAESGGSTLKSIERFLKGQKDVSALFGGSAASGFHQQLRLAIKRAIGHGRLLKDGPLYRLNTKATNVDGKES
Strand	E-score
ACCACCGC	0.166
CCGATGTA	0.0719
GGTTTGTA	-0.0357
CATAGTCC	-0.0376
CGCCAGGC	0.177

Study 3 — method: protein-binding microarray; molecule type: double-stranded DNA, one strand shown; matrix: in vitro; tested at: 940 nM top; notes: 60-bp whole probe; with: salmon DNA 0.4 mg/ml; relative to: random background probes; direction: higher = stronger binding
Target: Interferon regulatory factor 5, full length, phosphomimetic (IRF5, Homo sapiens, UniProt Q13568-2, residues 1-514, S451D/S453D/S456D/S462D)
Strand	fitted relative affinity
GCCTAGCACTCAAATTAGAATTTAAAACTGTGCTAGGTCTTGATTCGCTTGACGCTGCTG	-0.388 z-score
GCCTAGCACTCAACTTGTCTTTTCATACTGTGCTAGGTCTTGATTCGCTTGACGCTGCTG	0.768 z-score
GCCTAGCACGACGGTTTCCTTTCCCAGACGTGCTAGGTCTTGATTCGCTTGACGCTGCTG	2.06 z-score
GCCTAGCACTTAGGTATCGACTATCGGTTCGTGCTAGTCTTGATTCGCTTGACGCTGCTG	5.9 z-score

Further values, each from its own experiment
Molecule	target	test	system	setting	scale	measurement	result
PhoQ, residues 284 288 289 292 302 303 SLANKL	PhoP, residues 12 14 15 18 19 NIMAP (Escherichia coli, UniProt P23836)	Sort-seq, item: YFP reporter	E. coli	PhoQ-PhoP variant library, with: 10 µM Mg2+	relative to: high Mg2+ state, higher = stronger signaling	fold induction	0.433

A few entries again (study 3):
Strand	fitted relative affinity
GCCTAGCACTCAAATTAGAATTTAAAACTGTGCTAGGTCTTGATTCGCTTGACGCTGCTG	-0.388 z-score
